Measured values of several laboratories.
A part holds a random share of what one study measured. Positions count from the first letter of the parent shown.

Set 1
Target: CCNB2, cyclin fold, Cln2 fusion (human)
Method: yeast growth competition, sequencing
Sample: yeast
Notes: weak parent motif
Reference: not given
Reading: higher = stronger binding
Starting sequence: E2F2 docking peptide (human); LPAKRKLDLEGIG; partner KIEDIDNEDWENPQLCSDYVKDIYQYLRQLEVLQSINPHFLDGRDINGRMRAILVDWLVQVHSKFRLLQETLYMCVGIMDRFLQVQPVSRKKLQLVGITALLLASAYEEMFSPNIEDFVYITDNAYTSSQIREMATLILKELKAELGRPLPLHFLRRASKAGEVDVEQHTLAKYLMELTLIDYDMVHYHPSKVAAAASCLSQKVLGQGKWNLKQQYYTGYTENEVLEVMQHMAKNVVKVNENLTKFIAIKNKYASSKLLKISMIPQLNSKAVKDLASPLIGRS
Substitution | normalised enrichment score
P2A | 0.0913
L9A | 0.0264
R5A | 0.448
L1A | 0.126
G13A | 0.583
L9F | 1.9
D8A | -0.045
R5K L9F | 0.556
R5A L7A | 0.348

Set 2
Target: Interferon regulatory factor 7, full length, phosphomimetic (IRF7, Homo sapiens, UniProt Q92985, residues 1-503, S101K/S471D/S472D/S475D/S476D/S477D/S483D/S484D/S487D)
Chain of UniProt Q92985 (whole entry, unmodified, looked up): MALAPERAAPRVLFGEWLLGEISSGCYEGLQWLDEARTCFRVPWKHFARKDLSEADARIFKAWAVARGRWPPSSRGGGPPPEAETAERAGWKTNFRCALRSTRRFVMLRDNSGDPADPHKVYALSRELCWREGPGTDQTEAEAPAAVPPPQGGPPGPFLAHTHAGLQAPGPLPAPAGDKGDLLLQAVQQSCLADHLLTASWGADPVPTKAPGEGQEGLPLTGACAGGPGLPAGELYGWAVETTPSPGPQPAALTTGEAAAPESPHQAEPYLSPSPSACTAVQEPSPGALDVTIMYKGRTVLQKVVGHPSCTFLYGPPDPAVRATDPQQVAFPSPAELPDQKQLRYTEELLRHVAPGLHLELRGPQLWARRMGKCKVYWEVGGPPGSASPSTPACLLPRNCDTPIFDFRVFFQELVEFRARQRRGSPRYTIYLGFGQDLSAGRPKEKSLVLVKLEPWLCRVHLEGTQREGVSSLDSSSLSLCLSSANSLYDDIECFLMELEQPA
Method: protein-binding microarray
Molecule type: double-stranded DNA, one strand shown
Sample: in vitro
Concentration: 250 nM
Notes: 60-bp whole probe
With: salmon DNA 0.4 mg/ml
Reference: random background probes
Reading: higher = stronger binding
Constant ends, left off below: GCCTAGCAC … GTCTTGATTCGCTTGACGCTGCTG
Sequence | log fluorescence [z-score]
GAAGTAATTTCAAACCACAGGTGCTAG | -0.362
GTCCACTCCAGACCGTTTGCGTGCTAG | 1.13
GACGGTTTCGACTATCGGGTCGTGCTA | 5.88
TTAGGACTGCTTATCCTTTGGTGCTAG | 0.0706
GACGGACTGAGTATCGGGACGTGCTAG | -0.31
TCACCAATCTCTCTTCAACTGTGCTAG | -0.159
TTTTCCAGAGGCCCAGCCAGGTGCTAG | 1.64
TCAGGCCTCTTGCTCAGACTGTGCTAG | -0.58
ACCCTGCCTAAAGCTAGTTTGTGCTAG | -0.273
GAAAATCAACCAGGTGGTGTGTGCTAG | -0.42
GACGATTTCAGACTGGAGAAGTGCTAG | 0.108
GTCGGTTTCCTTCTCCTGACGTGCTAG | 3.99
TCAGGTATCGGTCTCGGTTAGTGCTAG | 2.14
GACGGACTGGGGTTTTGGGACGTGCTA | -0.517
TTAGGTTCCCTGTTCCTTTAGTGCTAG | 1.28
TTAGAACTGGACACTGGGTTAGTGCTA | -0.467
GACGGTAGCGGGACTGGGGACGTGCTA | -0.87
TTAGGTTTAGGTTCCGGTTAGTGCTAG | 2.42
TTAGAACTGAGTAACGATTAGTGCTAG | 0.0671
GACGGACCGGGGACTGGGGACGTGCTA | -0.557
GACTAACTGAGTCTCGAGACGTGCTAG | 0.652

Set 3
Target: UBE2V2 UBC core domain (UniProt Q15819)
Method: yeast two-hybrid
Sample: yeast
Notes: mostly zero background
Reference: not given
Reading: higher = stronger interaction
B1: VPS41 RING domain (UniProt P49754); chain KGVLVDEENICESCLSPILPSDAAKPFSVVVFHCRHMFHKECLPMPSMNSAAQFCNICSAKNRGPGSAI
B2: TRIM5 RING domain (UniProt Q9C035); chain ILVNVKEEVTCPICLELLTQPLSLDCGHSFCQACLTANHKKSMLDKGESSCPVCRISYQPENIRP
B3: TRIM13 RING domain (UniProt O60858); chain MELLEEDLTCPICCSLFDDPRVLPCSHNFCKKCLEGILEGSVRNSLWRPAPFKCPTCRKETSATGINS
B4: TRIM4 RING domain (UniProt Q9C037); chain EAEDIQEELTCPICLDYFQDPVSIECGHNFCRGCLHRNWAPGGGPFPCPECRHPSAPAALRP
B5: TRIM43 RING domain (UniProt Q96BQ3); chain FSHAFQKELTCVICLNYLVDPVTICCGHSFCRPCLCLSWEEAQSPANCPACREPSPKMDFKT
B6: MKRN1 RING domain (UniProt Q9UHC7); chain FAVQRSKDMVCGICMEVVYEKANPSERRFGILSNCNHTYCLKCIRKWRSAKQFESKIIKSCPECRITSNFVIPSE
B7: NEURL1 RING domain (UniProt O76050); chain VTPGLGQWSDECTICYEHAVDTVIYTCGHMCLCYACGLRLKKALHACCPICRRPIKDIIKT
B8: TRIM40 RING domain (UniProt Q6P9F5); chain LQKDNQEEGVCPICQESLKEAVSTNCGHLFCRVCLTQHVEKASASGVFCCPLCRKPCSEEVLG
B9: TRIML1 RING domain (UniProt Q8N9V2); chain LMENLREELTCFICLDYFSSPVTTECGHSFCLVCLLRSWEEHNTPLSCPECWRTLEGPHFQS
B10: TRAF5 RING domain (UniProt O00463); chain FVERLEERYKCAFCHSVLHNPHQTGCGHRFCQHCILSLRELNTVPICPVDKEVIKSQEVFK
Target sequence (chain): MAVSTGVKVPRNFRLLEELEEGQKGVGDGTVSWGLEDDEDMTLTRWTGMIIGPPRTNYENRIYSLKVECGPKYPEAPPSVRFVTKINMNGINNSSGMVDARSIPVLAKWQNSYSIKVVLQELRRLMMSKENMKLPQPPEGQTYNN
Molecule | lacZ reporter activity
B1 (VPS41 RING domain) | 0
VEPSEENSKDCVVCQNGTVNWVLLPCRHTCLCDGCVKYFQQCPMCRQFVQESFALC (CGRRF1 RING domain (UniProt Q99675)) | 0
B2 (TRIM5 RING domain) | 0
B3 (TRIM13 RING domain) | 0
B4 (TRIM4 RING domain) | 0
QVDKAVFHMQSVKCLKCQEQKRAVLPCQHAALCELCAEGSECPICQPGRAHTLQS (UNK RING domain (UniProt Q9C0B0)) | 0
B5 (TRIM43 RING domain) | 0
DHGAVGQEMCCPICCSEYVKGEVATELPCHHYFHKPCVSIWLQKSGTCPVCRCMFPPPL (PJA1 RING domain (UniProt Q8NG27)) | 0
B6 (MKRN1 RING domain) | 0
FQGDVDEDLICPICSGVLEEPVQAPHCEHAFCNACITQWFSQQQTCPVDRSVVTVAHLRP (RNF41 RING domain (UniProt Q9H4P4)) | 0
B7 (NEURL1 RING domain) | 0
B8 (TRIM40 RING domain) | 0
PAELEVQASECVVCLEREAQMIFLNCGHVCCCQQCCQPLRTCPLCRQDIAQRLRIY (LRSAM1 RING domain (UniProt Q6UWE0)) | 0
B9 (TRIML1 RING domain) | 0
B10 (TRAF5 RING domain) | 0
ASLPTSEEDLCPICYAHPISAVFQPCGHKSCKACINQHLMNNKDCFFCKTTIVSVEDWE (RNF123 RING domain (UniProt Q5XPI4)) | 0

Set 4
Target: Centromere-binding protein 1, full length, N-terminal tag (CBF1, Saccharomyces cerevisiae, UniProt P17106, residues 1-351)
Chain of UniProt P17106 (whole entry, looked up): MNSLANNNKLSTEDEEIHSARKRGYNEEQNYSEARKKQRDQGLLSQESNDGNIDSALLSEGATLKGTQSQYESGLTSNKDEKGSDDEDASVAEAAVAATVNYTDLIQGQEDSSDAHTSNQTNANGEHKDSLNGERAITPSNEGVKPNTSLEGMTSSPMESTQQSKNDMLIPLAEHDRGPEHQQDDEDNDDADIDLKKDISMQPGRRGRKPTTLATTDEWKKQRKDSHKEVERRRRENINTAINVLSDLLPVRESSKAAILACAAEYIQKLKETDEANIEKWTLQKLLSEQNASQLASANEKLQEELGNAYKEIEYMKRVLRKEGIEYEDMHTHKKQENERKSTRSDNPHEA
Method: protein-binding microarray
Molecule type: double-stranded DNA, one strand shown
Sample: in vitro
Concentration: 0.8 µM
Notes: whole 60-bp probe, no competitor
Reading: higher = stronger binding
Constant ends, left off below: … GTCTTGATTCGCTTGACGCTGCTG
Sequence | fluorescence intensity [a.u.]
CTATACTTCGATAAGCACGAGGAAATGTAATATTTC | 639
GAATTACCAAATAACCACCTGAACCACCCCACATAG | 543
CTATTTCCTTTTTGCCTCGTGATGTTCAAGAAGTTC | 1750
CTACTTGAAAATTGGCACGTTTTCTTCTTGTTTTTC | 673
CTACGTAATAATCTTCACGCCATCTATATAAATTTC | 564
CTACCCCGGTTGAGTGATGTTAACGATGTTTACTTC | 470
CTAACAAACGGGGCACACGTGCGGGAGTTTCAATTC | 4220
GAACCACACTATGCTGCACACGTGAAATGATGATAG | 2870
GAATTTTTACTAGGCATCAGAACTGTCTCCGAATAG | 522
GAAATATTTAAAATACGTGTGATAGTACTATTTTAG | 531
GAAATTTTTGTATAATTGGTGGTGTAACGTGGATAG | 585
GAAACAGGTAATCATCATGAGCTCCCCATTCATTAG | 497
CTAGCTAAAGGAGGTCACGAAAACGAATCTGGCTTC | 545
CTATTATTACTACGTGGTCAATTTTCTCTTTCCTTC | 521
GAAAACAATTGAAGAGACGTGACTAATGCTATGTAG | 799
CTAGTGGCTTAGCATCTCGTGAGGATATGGAAGTTC | 615
CTAATACGAATAGGTGCCGTGATGAAGAAAAAATTC | 644
GAAAGCTATTTAAACCCCATCACGTTGATTGTCTAG | 1050
TGTACGAAGCTATAGCACGTCAATATAGTAGTTAGG | 490
GAATATATGTGTCTGTACATGATGTACTCGGTCTAG | 533
GAAAATTATATAAAACACATGCGGATTAGTTCATAG | 585
CTACATACATAAATACACACGCATTATTGTTTCTTC | 558
CTAAACGATTCAAAGCAGGTGAATTTCCATTACTTC | 505
GAAAACAAAGTTTATCACGTTGTTGGTACTTAGTAG | 1290
CCTAACTACTATATTCACGAGTTATAGCTTCGTACA | 534

Excerpt of the above (set 1):
Substitution | normalised enrichment score
P2A | 0.0913
L9A | 0.0264
R5A | 0.448
L1A | 0.126
G13A | 0.583
L9F | 1.9
D8A | -0.045
R5K L9F | 0.556
R5A L7A | 0.348
